Results of several laboratories.
Every numbered part comes from another study and shows a few of its results, in no order.

Sample 1 — technique: universal PBM; form: double-stranded DNA, one strand shown; sample: in vitro; tested at: not given; reading: higher = stronger binding
Target: Sal-like protein 4, full length isoform B (SALL4, Homo sapiens, UniProt Q9UJQ4-2, residues 1-616)
Notes: 8-mer, flanks averaged, mean of replicates
Oligonucleotide | E-score
AGTCAACG | -0.0863
AGCCAGAG | -0.192
CAGTGTTC | -0.00811
GGAGTCGA | -0.249
ATTTGGTC | -0.00974
GTTGGTGA | -0.0978
AACAGAAT | 0.111
GAGGTTCA | -0.0186
CAAAAATA | 0.355
CTATCCTA | -0.00437
GTAAGGGA | -0.0711
AAAACCCA | 0.0895
AAAAAAGC | 0.181
AGATAAAA | 0.247
CCGAGGAC | -0.19
TAGATTGA | 0.126
AACACCGA | -0.0626
GGCTGTGA | -0.139
AGCGAAAT | 0.136
GTAGTAGA | 0.134
AAGCTCTC | -0.187
AATGTGAG | 0.138
AAGTAAAT | 0.365
CATGGATC | -0.034
TACCCCTA | 0.01

Sample 2 — technique: RNA Bind-n-Seq; form: RNA; sample: in vitro; tested at: 365 nM; baseline: no-protein control; reading: higher = stronger binding
Target: RNA binding protein fox-1 homolog 2, RRM domain, GST-SBP tag (RBFOX2, Homo sapiens, UniProt O43251-10, residues 100-194)
Notes: natural RNA segment, single round, ends assumed
Shared flanks, not repeated: GGGAGUUCUACAGUCCGACGAUC … UGGAAUUCUCGGGUGCCAA
Residues (chain): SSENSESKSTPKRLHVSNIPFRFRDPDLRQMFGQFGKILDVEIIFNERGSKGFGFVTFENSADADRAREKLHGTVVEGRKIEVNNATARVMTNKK
Oligonucleotide | RBNS enrichment (R)
CUCAACCCACCAUGCUCAUCAUUCUGUCUCAUCCAUCCAUCCAUCCAUCCAUUCAUCGCCAUGUGUCCGCAAGACUGUCUCCAUGACCCUGAAAAAGGACUCUCGAGAUG | 0.686
AUUUCUGUCAACCCUGGACCAACCAGUCUCUUAGAAGCCACUCAAGGGUAUAACACAUGCUCCGAGGUGGGUGUGUCUCUGACCAUCUCAAGCACCCUAUCUUGUGUCCC | 0.261
UCAUGCUUUUCACCUAAAUAGCAAUUUAAAUAUUUGAUGAGCUCUGAACAAACCCUGUAUCAAGUAUCUGAAAUUUAAGGAGAUCAAACAGACUGUGACCAAGGUCCUGU | 0.323
AACAAGACAUUUACUAAGAAGAGCUAAAGGAAAGAAUUAAAGGUUUCUUAUGCUUUUUUGGGGGGGGGUGUCAAUUUUUAGUAUAUUAAGAGCUAAAAGAAGUAAAGGUU | 0.73
AAAGUUUUUAUCAUUGAAGACAAUAUUGAACAACCCCCUAUUUUGUGGGGAUUGAGAAGGGGUGAAUAGAGGCUUGAGACUUUCCUUUGUGUGGUAGGACUUGGAGGAGA | 1.3
UUUUAACCUUUGCACCUUCUCAGUGCUGUAUGCGGCUGCAGCCGUCUCACCUGUUUCCCCACAAAGGGAAUUUCUCACUCUGGUUGGAAGCACAAACACUGAAAUGUCUA | 0.34
UUGUGGGGAGUUCAAGAGGCCUUUUCCCCUUGAGGGUGUGGCUGUCCCCCUUUCAGGCGUGUGGCGUCAUUCAUGGAGGAAGUGCUGGCUCUACUUAGCACACGCACAGU | 0.488
GCUUGCAAAUGAAUUGCUAGUCCCUCAUUGUGCGGGUCUAUGUGGAGCUUUAAUCAGUAAAUGUCUCCACUUCCUAUAUUACAUUAACGUUGGCUCAUGCAUAUAACCAC | 7.65
AGAGGCAGGAUGUAAGACACACUGUGUUGCAUUCUUGCACAAGUCAUGAAAAUGGAGCCAGAGAGCCUGGACAUCAGGGACUUUUGCCCACAGCACAUGACACCGACAGC | 0.193
AUCAGAGGUCUAAUGGUAGCAAACGACACAGCGACCUUCUUCAUUACUUUGGCCAAGGUUGAAGAUGGCUGUGACGCUAUUAUGCAGGUGUGCACUAGAAAACCCAGUGG | 0.383
AUUGAAAUAAAACUCAAACCACACUGCGGUUGUUGUCUUAAUGAUUAAAUGUUCCGUUUCUAGCUGGAUGGUCUUUGCUACAGAGUAUUCGAUUUCUUUUUAGUAGACGU | 0.425
UCUGCUUUAAUUUCAUGAAAAGAUUAUGAUCUCAGAAAUUGUAUCUUAGUUGGUAUCAACCAAAUGGAGUGACUUAGUGUACAUGAAAGCGUAAAGAGGAUGUGUGGCAU | 0.465

Sample 3 — technique: RNA Bind-n-Seq; form: RNA; sample: in vitro; tested at: not given; baseline: input RNA pool; reading: higher = stronger binding
Target: RING finger protein unkempt homolog, zinc fingers 1-6, GST-SBP tag (UNK, Homo sapiens, UniProt Q9C0B0, residues 30-357)
Notes: RNA with constant flanks, human and mouse sites, ends assumed
Shared flanks, not repeated: GGGAGUUCUACAGUCCGACGAUC … CAACAGAGGAUUGAGCAUCA
Target sequence (chain): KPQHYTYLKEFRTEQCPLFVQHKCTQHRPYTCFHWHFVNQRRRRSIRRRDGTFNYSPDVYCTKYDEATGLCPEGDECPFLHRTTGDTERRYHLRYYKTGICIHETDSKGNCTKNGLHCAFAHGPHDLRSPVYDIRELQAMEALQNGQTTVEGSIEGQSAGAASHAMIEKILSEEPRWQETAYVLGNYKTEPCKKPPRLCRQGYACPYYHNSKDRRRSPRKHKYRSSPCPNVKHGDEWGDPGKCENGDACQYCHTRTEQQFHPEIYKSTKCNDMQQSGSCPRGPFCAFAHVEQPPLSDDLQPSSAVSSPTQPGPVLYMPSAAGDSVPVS
Oligonucleotide | bound/input enrichment [ratio]
UCCAAGUUACAAAAGUUUGAGGUGCAGAGGGAAGGCCAGAUUUUUUUUUUAAUGAAAUUAUAUAGAUUAGAUCUCAGUAUUUAAACUGUUCCUCAAUUUUGUGAGGCUGUGUUGGAAAUA | 2.54
GCACUUGGCAAUGUAAUAAGUGCCUUGGGAGACAAGAGCAAGAGGGCCACACAUGUCCCCUAUAGAGAUUCCAAGCUAACAAGACUACUACAGGAUUCCCUCGGGGGUAAUAGCCAAACA | 0.261
AAAUUAUUAUUAUGCAACCACAAGGAUCUCUUCUUUCUCAGGGUGUCUAAGCUGCUGGAUUGCUUUUCGCCCAAAUCAAUGUGGUUUCUUUGGAACAUUUUCAGCAAAGGAACGCAUAUG | 0.511
UUUAUGGCAUGUAAUGGUGUUUAGUAAUAUUUUAAUGUAGAUUUUGAUUUAUUUCAGCAAUAGUAAUUUUAAGAUAUUCUUUGAAUGAAAGUGUCUUCGUUUCUAUGAUACAGGUCAUUU | 98.7
CAGGAGGUCUUCGACUCCAAGGUGUCCAUCCAGGUGCACCUGGCGGUGAAGCACAGCAAUGAGAAGAAGAUGUACCGCUGCACGGCCUGCAACUGGGACUUCCGCAAGGAGGCUGACCUG | 0.0674
GCUGUGUCUUUGACUCUUGAUCAGAGCCAGUCACAGGCUUCUUUGGAAGCAGUAGAAGUCCCUUCAAUGGCCUCAUCUUGGGGUGGGCCACAUUUUUCUCCAGAACAUAAAGAACUGUCU | 0.128
ACUUUAAGUUGUUGGAAUUCCUUUAAGAAGAGUAUAAAUUAUUUUUUUUAUUUAAAAGGAUAGUUGAUUCCUGGGGUACUUUGUUUUGAAAUUAGAAGUUGUUAAGGACACUUUUGUUGU | 4.96
GCUGGGAGAAAUGUUGGAAAUGGUUUAAACACAUUAUCAGAUUCAUCUUGGAGGCAUAGUCAAGUUCCUAGAUCUUCAUCAAUGGUACUUGGAUCAUUUGGAACAGACUUAAUGAGAGAG | 0.356
GAACAGUUUGUCCAGCUCCUUUCCGUAUCCUGUUGAACAUAUCAGGCAAACAGCGCCCAUCUUAGAACCUGCUCCCAGCAUUUACACUGUGGGAAUAAAGGUAGGCAGGGCUGUGCUGGG | 0.171
UGCUCCUGUUCACAGUCCCACUGCUGCUCCAGAUACCUGUGCAUGGGAGCCCUGUCUUUGUGCCUACCCUGCUUGCUCUGCUACCCUCCCGCCAAGGGCUGCCUGAAGCUGUGCAGGGGC | 0.147
AGUUUGGAUCUUGAUAGCUGCACUCUUUCAGAAAUCCUCAGACUGCACAUCUUAGCUUCAGGUGCUGAUGUAACAUCAGCAAAUGCAAAGUAUAGAUAUCAAAAACGAGGAGGAUUUGAU | 0.13

Sample 4 — technique: protein binding microarray; form: double-stranded DNA, one strand shown; sample: in vitro; tested at: not given; baseline: not given; reading: higher = stronger binding
Target: Histone acetyltransferase KAT6A, winged helix 2, GST fusion (KAT6A, Homo sapiens, UniProt Q92794, residues 85-181)
Notes: 8-mer, flanks averaged, mean of 2 arrays, mostly near background
Residues (chain): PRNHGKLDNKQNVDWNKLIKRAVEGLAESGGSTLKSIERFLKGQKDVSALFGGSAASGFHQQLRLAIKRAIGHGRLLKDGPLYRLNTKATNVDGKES
Oligonucleotide | E-score
AGGCGACG | 0.0111
CTCTGCAG | 0.084
ACGGAATA | 0.0846
CAATTTCA | 0.00522
CCCTCATC | -0.186
CTGCGGGC | 0.174
ATGCCCAT | -0.00779
TTGCCCAA | 0.122
CACAGATC | -0.216
ACATATTC | -0.107
CGCCCTTA | 0.0437
ACGTGCGC | 0.0613
ACCGGCGA | 0.146
GATGGACC | -0.0566
CGACGCCG | 0.226
TCCAAACA | -0.0385
AGGACGCA | -0.0103
ATAACGTG | -0.206

Sample 5 — technique: RNAcompete; form: RNA; sample: in vitro; tested at: 20 nM; notes: 7-mer, probes averaged, single round; baseline: mean of 7-mers; reading: higher = stronger binding
Target: PABPC1L2, full length, GST fusion (mouse, UniProt A0ABA7IW68)
Target sequence (chain): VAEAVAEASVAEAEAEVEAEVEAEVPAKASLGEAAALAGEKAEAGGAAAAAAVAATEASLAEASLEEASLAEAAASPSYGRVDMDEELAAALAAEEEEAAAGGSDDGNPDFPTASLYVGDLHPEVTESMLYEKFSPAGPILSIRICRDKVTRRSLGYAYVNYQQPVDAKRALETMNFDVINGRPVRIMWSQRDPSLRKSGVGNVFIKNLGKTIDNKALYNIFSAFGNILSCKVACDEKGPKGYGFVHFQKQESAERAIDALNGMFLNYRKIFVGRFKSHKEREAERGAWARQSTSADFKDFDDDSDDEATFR
Oligonucleotide | 7-mer Z-score
UCUUGAU | -0.353
CUUUCGC | -0.34
CAAAUAA | 0.867
CAUGAAA | 0.666
UCGCCCG | -0.373
ACACCAC | -0.0518
AAAGAUA | 2.87
CUGCGGC | -0.161
AUUAACA | 0.0497
CGUCCAG | -0.195
GGUGCCU | -0.0246
CCCGGCC | -0.443
ACGAAGU | 0.0533
ACUAGUU | -0.199
AGUGCAC | -0.182
GCUAAGC | -0.307
GCGGCCG | -0.242
AGGCGUU | -0.0518
GCUCCAC | -0.255
AGGGGGU | 0.421
GUGCGAU | -0.142
UGUCUGC | -0.351

Some of these lines once more (sample 5):
Oligonucleotide | 7-mer Z-score
GGUGCCU | -0.0246
ACUAGUU | -0.199
UCUUGAU | -0.353
CUUUCGC | -0.34
AUUAACA | 0.0497
